Assay results collected from several papers.
Several values in a cell are separate wells, animals, samples, runs or records. ± gives the spread as reported.
U2AF2: U2AF2 148-342 (Homo sapiens, UniProt P26368)
UniProt P26368, sequence (whole entry, looked up): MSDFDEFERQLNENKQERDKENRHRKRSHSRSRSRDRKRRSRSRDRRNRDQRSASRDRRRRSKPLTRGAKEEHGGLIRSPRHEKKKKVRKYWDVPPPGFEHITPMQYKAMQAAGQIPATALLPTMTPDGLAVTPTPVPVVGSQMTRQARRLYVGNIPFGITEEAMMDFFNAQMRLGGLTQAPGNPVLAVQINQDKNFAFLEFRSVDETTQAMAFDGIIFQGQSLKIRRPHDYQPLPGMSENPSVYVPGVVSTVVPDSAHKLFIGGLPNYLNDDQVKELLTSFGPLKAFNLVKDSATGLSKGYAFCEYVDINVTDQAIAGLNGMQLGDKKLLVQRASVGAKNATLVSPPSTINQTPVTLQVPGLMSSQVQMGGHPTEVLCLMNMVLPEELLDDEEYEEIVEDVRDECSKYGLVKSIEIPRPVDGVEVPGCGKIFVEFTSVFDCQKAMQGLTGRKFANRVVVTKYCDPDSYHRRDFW
B1: phosphoglycerate mutase 4, human; sequence looked up; chain MAAYKLVLIRHGESTWNLENRFSCWYDADLSPAGHEEAKRGGQALRDAGYEFDICLTSVQKRVIRTLWTVLDAIDQMWLPVVRTWRLNERHYGGLTGLNKAETAAKHGEAQVKIWRRSYDVPPPPMEPDHPFYSNISKDRRYADLTEDQLPSYESPKDTIARALPFWNEEIVPQIKEGKRVLIAAHGNSLQGIAKHVEGLSEEAIMELNLPTGIPIVYELDKNLKPIKPMQFLGDEETVCKAIEAVAAQGKAKK
B2: human DDX5; sequence looked up; chain MSGYSSDRDRGRDRGFGAPRFGGSRAGPLSGKKFGNPGEKLVKKKWNLDELPKFEKNFYQEHPDLARRTAQEVETYRRSKEITVRGHNCPKPVLNFYEANFPANVMDVIARQNFTEPTAIQAQGWPVALSGLDMVGVAQTGSGKTLSYLLPAIVHINHQPFLERGDGPICLVLAPTRELAQQVQQVAAEYCRACRLKSTCIYGGAPKGPQIRDLERGVEICIATPGRLIDFLECGKTNLRRTTYLVLDEADRMLDMGFEPQIRKIVDQIRPDRQTLMWSATWPKEVRQLAEDFLKDYIHINIGALELSANHNILQIVDVCHDVEKDEKLIRLMEEIMSEKENKTIVFVETKRRCDELTRKMRRDGWPAMGIHGDKSQQERDWVLNEFKHGKAPILIATDVASRGLDVEDVKFVINYDYPNSSEDYIHRIGRTARSTKTGTAYTFFTPNNIKQVSDLISVLREANQAINPKLLQLVEDRGSGRSRGRGGMKDDRRDRYSAGKRGGFNTFRDRENYDRGYSSLLKRDFGAKTQNGVYSAANYTNGSFGSNFVSAGIQTSFRTGNPTGTYQNGYDSTQQYGSNVPNMHNGMNQQAYAYPATAAAPMIGYPMPTGYSQ

Molecule	tested on	test	test system	conditions	scale	measurement	value
[177Lu]Lu-DOTA-TATE		radio-HPLC	PBS	24 h, 37 °C, 50 MBq/nmol		intact radiolabelled peptide	95.7 ± 0.5%
coproporphyrin I		UHPLC-MS/MS	human, serum	oral, 20 mg ezetimibe, 5 h, geometric mean ezetimibe phase		serum concentration	1.29 nM
regorafenib N-β-glucuronide			Oatp1b2 knockout mice	oral, 10 mg/kg regorafenib	relative to: wild-type mice	Cmax	5.1 fold
FNA / CGLSGLGVA-NH2 ([18F]FNA-labelled, C-amide)		ex vivo gamma counting	peptide, glioblastoma mouse model, ovaries	60 min post injection, together with: 500-fold excess CooP blocking		tissue uptake	0.58 %ID/g
Teicoplanin			QC solution	2 months, -40 °C, high QC level		recovery	101%
GUUCUUUUU (ssRNA)	U2AF2	sequencing of bound RNA	RNA	motif only		Kd	3.03 µM
coproporphyrin I			human, plasma	baseline period		diurnal variation (Cmean-Cmin)/Cmean	23.1 ± 3.7%
Polymyxin B		LC-MS	Sprague-Dawley rat, left hippocampus	intracerebroventricular, 0.75 mg/kg, 1 h		concentration	1730 ng/mL and 510 ng/mL and 990 ng/mL and 220 ng/mL
coproporphyrin III			human, serum	oral, 20 mg ezetimibe, 5 h, geometric mean ezetimibe alone	relative to: at 5 h over pre-dose	concentration ratio	1.23
CAUUGUUUU (ssRNA)	U2AF2	sequencing of bound RNA	RNA	motif only		Kd	1.93 µM
B1	CYB5R4 knockout human cells	PP6 interaction, 3xFLAG-PP6C IP-MS		concentration not given	relative to: CYB5R4 KO over parental	log2 fold change	1.16
caspofungin			adult ICU patients, mITT, serum	dose not given, day 14		aspartate aminotransferase	29.8 U/L
B2 (human DDX5)	CYB5R4 knockout human cells	PP4 interaction, 3xFLAG-PP4C IP-MS		concentration not given	relative to: CYB5R4 KO over parental	log2 fold change	-0.72
CTOP		RP-HPLC	HALO Phenyl-hexyl column	25 µM, acetic acid/acetonitrile, 10 min gradient		retention time	5.25 min

Some of these lines once more:
Molecule	tested on	test	test system	conditions	scale	measurement	value
CAUUGUUUU (ssRNA)	U2AF2	sequencing of bound RNA	RNA	motif only		Kd	1.93 µM
